Measurements pooled from the literature.
Protocols differ between the studies behind these lines. Values joined by “and” are separate records of one study, mostly repeats; a detail may differ. ± gives the spread as reported. ≈ marks a conversion by molar mass, not a printed value.
GBA2: Beta-glucosidase (GBA2, Homo sapiens, UniProt Q9HCG7)
Chain of UniProt Q9HCG7 (whole entry, looked up): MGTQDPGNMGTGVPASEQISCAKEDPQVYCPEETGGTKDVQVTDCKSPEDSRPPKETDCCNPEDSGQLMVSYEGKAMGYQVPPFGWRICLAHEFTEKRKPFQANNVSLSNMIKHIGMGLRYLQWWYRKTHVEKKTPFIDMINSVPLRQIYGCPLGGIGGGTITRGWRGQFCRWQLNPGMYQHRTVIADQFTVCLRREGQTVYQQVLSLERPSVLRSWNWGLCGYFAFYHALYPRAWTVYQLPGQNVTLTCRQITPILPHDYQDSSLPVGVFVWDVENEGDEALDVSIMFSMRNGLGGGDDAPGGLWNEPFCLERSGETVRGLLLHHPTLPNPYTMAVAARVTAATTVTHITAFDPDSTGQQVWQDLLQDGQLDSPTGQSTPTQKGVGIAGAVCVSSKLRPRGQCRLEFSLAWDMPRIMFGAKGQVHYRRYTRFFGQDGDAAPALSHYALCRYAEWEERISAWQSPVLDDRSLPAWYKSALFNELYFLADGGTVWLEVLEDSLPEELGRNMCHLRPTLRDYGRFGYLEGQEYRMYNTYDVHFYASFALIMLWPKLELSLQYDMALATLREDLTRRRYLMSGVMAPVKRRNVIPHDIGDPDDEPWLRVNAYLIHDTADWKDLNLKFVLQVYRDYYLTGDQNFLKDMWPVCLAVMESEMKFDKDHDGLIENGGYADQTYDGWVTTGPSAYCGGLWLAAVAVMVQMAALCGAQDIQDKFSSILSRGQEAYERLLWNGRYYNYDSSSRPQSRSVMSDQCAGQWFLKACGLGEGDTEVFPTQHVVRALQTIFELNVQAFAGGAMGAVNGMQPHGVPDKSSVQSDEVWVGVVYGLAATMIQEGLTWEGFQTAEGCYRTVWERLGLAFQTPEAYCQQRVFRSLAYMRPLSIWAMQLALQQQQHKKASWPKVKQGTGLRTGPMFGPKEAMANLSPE

O=C(N/N=C/c1cc[n+](CC2CC2)c2ccccc12)c1cccc(C(=O)N/N=C/c2cc[n+](CC3CC3)c3ccccc23)n1  ΔTm (myc22 MYC G4-DNA parallel; FRET melting; 1 µM, K1 buffer, DNA 0.2 µM): 25.1 ± 0.3 °C
C=CC(=O)Nc1cccc(Cn2ncc3cnc(Nc4cnn(CCOC)c4)nc32)c1  percent of control (PRKD1 human; binding, KINOMEscan; 100 nM; lower = stronger binding): 100%
O=C(N/N=C/c1ccc2c(ccc[n+]2Cc2ccccc2)c1)c1ccc2ccc3ccc(C(=O)N/N=C/c4ccc5c(ccc[n+]5Cc5ccccc5)c4)nc3c2n1  ΔTm (myc22 MYC G4-DNA parallel; FRET melting; 1 µM, K1 buffer, DNA 0.2 µM): 24.4 ± 0.2 °C
OC[C@@H]1[C@@H](O)[C@H](O)[C@@H](O)CN1CCCCCOCc1cccc(-c2ccccc2)c1  selectivity ratio (GBA2; inhibitor, 4MU-β-D-glucopyranoside; HEK293T homogenates overexpressing GBA2; reference: GBA1 IC50 over GBA2 IC50): 150
CNS(=O)(=O)Nc1nccc(Cc2c(C)c3ccc(Oc4ncccc4F)cc3oc2=O)c1F  IC50 (COV318; cell viability; 7 days): > 1000 nM
CN1CCC[C@]1(C)/C=C/S(=O)(=O)NC(=O)Nc1c2c(cc3c1CCC3)CCC2  IL-18 inhibition (human, whole blood ex vivo; 100 mg twice daily, day 14, 6 h, multiple ascending dose, added: LPS and ATP): 93.9%
O=C(N/N=C/c1ccc(C[n+]2ccccc2)cc1)c1cncc(C(=O)N/N=C/c2ccc(C[n+]3ccccc3)cc2)n1  ΔTm (myc22 MYC G4-DNA parallel; FRET melting; 1 µM, K1 buffer, DNA 0.2 µM, added: ds26 10 µM): 9.5 ± 0.3 °C
CCN(CC)CC(=O)Nc1cccc(-n2cc(-c3ccc4ccc(-c5cn(-c6cccc(NC(=O)CN(CC)CC)c6)nn5)cc4c3)nn2)c1  fold regulation (RCC4; PCR angiogenesis array, item: TIMP3; 5 x IC50, 4 h, normoxia; reference: untreated): 5.54 fold
c1ccc(-c2n[nH]cc2-c2ccnc3ccccc23)nc1  log2 fold change (orf19.4575 Candida albicans; kinase binding, MIB/MS competition; Candida albicans lysate; 10 µM; reference: DMSO): -0.26
O=C1NC2(CC2)COc2ncc(F)cc2[C@H]2COCCN2c2ccn3ncc1c3n2  revertant colonies (Salmonella typhimurium; Ames test; TA98; 150 µg/plate, 48 h, added: rat liver S9): 21 ± 3 revertants/plate
C=CC(=O)N1[C@@H](c2ccc3c(c2)OCO3)c2[nH]c3ccccc3c2C[C@H]1C(=O)N1CCN(C)CC1  relative co-enrichment (human cyclin E1 N112C-3xFLAG:CDK2; co-IP with TMT proteomics, item: HSPA5; concentration not given, P11021; reference: wild type DMSO): 110%
C[n+]1ccc(/C=N/NC(=O)c2ccc3ccc(C(=O)N/N=C/c4cc[n+](C)c5ccccc45)nc3n2)c2ccccc21  ΔTm (myc22 MYC G4-DNA parallel; FRET melting; 1 µM, K1 buffer, DNA 0.2 µM, added: ds26 10 µM): 23 ± 0.6 °C
CCCC[C@H](NC(=O)COCCOCCNC(=O)CN1CCN(CC(=O)O)CCN(CC(=O)O)CC1)C(=O)N[C@H]1CC(=O)NCCCC[C@@H](C(N)=O)NC(=O)[C@H](Cc2c[nH]c3ccccc23)NC(=O)[C@H](CCCNC(=N)N)NC(=O)[C@@H](Cc2ccccc2)NC(=O)[C@H](Cc2c[nH]cn2)NC1=O [technetium-99m labelled]  tissue uptake (C57 mouse, intestine; intravenous, 0.037 MBq, 4 h): 5.5 ± 0.65 %ID
COc1cccc(-c2ccc(COCCCCCN3C[C@H](O)[C@@H](O)[C@H](O)[C@H]3CO)cc2)c1  selectivity ratio (GBA2; inhibitor, 4MU-β-D-glucopyranoside; HEK293T homogenates overexpressing GBA2; reference: GBA1 IC50 over GBA2 IC50): 125
CCCC[C@H](NC(=O)CCCCCCCNC(=O)CN1CCN(CC(=O)O)CCN(CC(=O)O)CC1)C(=O)N[C@H]1CC(=O)NCCCC[C@@H](C(N)=O)NC(=O)[C@H](Cc2c[nH]c3ccccc23)NC(=O)[C@H](CCCNC(=N)N)NC(=O)[C@@H](Cc2ccccc2)NC(=O)[C@H](Cc2c[nH]cn2)NC1=O [technetium-99m labelled]  tissue uptake (C57 mouse, heart; intravenous, 0.037 MBq, 4 h): 0.04 ± 0.02 %ID/g
CCN(CC)CC#CCNc1ccnc2cc(Cl)ccc12  revertant count (Salmonella typhimurium; mini-Ames test; TA100; 1000.0 µg/well, added: rat liver S9): 10 revertants/well
C[n+]1ccc(/C=N/NC(=O)c2ccc3ccc4ccc(C(=O)N/N=C/c5cc[n+](C)cc5)nc4c3n2)cc1  ΔTm (myc22 MYC G4-DNA parallel; FRET melting; 1 µM, K1 buffer, DNA 0.2 µM, added: ds26 10 µM): 12.6 ± 0.8 °C
CC(=O)[O-].O.O.O.O.[Co+2].[O-]c1ccc(Br)cc1C=NCCN1CCOCC1  inhibition (superoxide scavenging; 160 µM): 44.8%
COc1cc(O)ccc1CCC(c1ccc(O)cc1)c1cc2c(c(C)c1O)OC(c1ccc(O)cc1)CC2 (mixture of isomers)  amount (item: 5-HEPE; human whole blood; 3 µM, added: Escherichia coli): 91 ± 25 pg/mL blood
C=C(NC(=O)c1csc(-c2nc3c(cc2O)-c2nc(cs2)C(=O)NC(C(C)O)C(=O)NC(=C(C)OC)c2nc(cs2)C(=O)NC2c4nc(cs4)C(=O)NC(COC(=O)c4c5c6c(cccc6n4O)COC(=O)C(OC4CC(C)(O)C(N(C)C)C(C)O4)C2OC5)c2nc-3cs2)n1)C(N)=O (centres unmarked)  MIC90 (Staphylococcus epidermidis; microbial growth; MRSE; clinical isolate): 0.0156 µg/mL (≈ 0.0109 µM)
COC1CN([C@H]2CC[C@H]([C@@]3(C)Oc4c(Cl)cc(C(=O)NCc5c(SC)cc(C)[nH]c5=O)c(C)c4O3)CC2)C1  log2 fold change (RNA-seq, item: ACKR2 mouse homolog; mouse, HT-1376 xenograft, whole blood; dose not given; reference: vehicle): 0.552
CC(C)C[C@H](NC(=O)[C@H](Cc1ccc(O)cc1)NC(=O)[C@@H](CCCNC(=N)N)NC(=O)[C@@H](CO)NC(=O)[C@H](Cc1ccccc1)NC(=O)[C@H](CC1CCCCC1)NC(=O)[C@H](CC(=O)O)NC(=O)CN1CCN(CC(=O)O)CCN(CC(=O)O)CCN(CC(=O)O)CC1)C(=O)N[C@@H](Cc1c[nH]c2ccccc12)C(=O)N[C@@H](CO)C(=O)O [copper-64 labelled]  activity concentration (human, small intestine; concentration not given, 24 h): 1070 Bq/mL and 569 Bq/mL and 1500 Bq/mL and 1990 Bq/mL and 2310 Bq/mL and 1210 Bq/mL
C[n+]1cccc2cc(/C=N/NC(=O)C(=O)N/N=C/c3ccc4c(ccc[n+]4C)c3)ccc21  ΔTm (myc22 MYC G4-DNA parallel; FRET melting; 1 µM, K1 buffer, DNA 0.2 µM): 2.9 ± 0.2 °C
CCN(C(=O)c1cc(F)ccc1Oc1nncnc1N1CCC2(C1)CN([C@H](CCCN(C)CCOC)C(C)C)C2)C(C)C  GI50 (Calu-6; cell growth or viability; 72 h): > 10000 nM
C[n+]1ccc(/C=N/NC(=O)c2cccc(C(=O)N/N=C/c3cc[n+](C)cc3)c2)cc1  ΔTm (myc22 MYC G4-DNA parallel; FRET melting; 1 µM, K1 buffer, DNA 0.2 µM, added: ds26 10 µM): 0 ± 1.2 °C
CC(C)c1ccc(N(C)c2ccc3c(c2)OCC[C@H]3CNc2cnccc2C(=O)O)cc1  IC50 (SW780; cell growth or viability, ATP luminescence; 7 days): 13 nM
COc1ccc(C(=O)CCc2cc(C(CCc3ccc(O)cc3OC)c3ccc(O)cc3)c(O)cc2OC)cc1 (racemic)  20-OH-LTB4 level (human blood; 0.3 µM, added: A23187): 488 ± 175 pg/mL
Nc1ncc(-c2cc(-c3cnn(CC(F)(F)F)c3)ncc2F)nc1C(=O)NC1CNCC(F)C1 (centres unmarked)  remaining binding (MARK1; KINOMEscan; 1 µM; reference: DMSO control): 80%
CCCCNCCO.O=C(O)C(Cl)Cl  inhibition (Amaranthus retroflexus; herbicidal activity; 15 mg/mL, 21 days, post-emergence greenhouse): 0%
O=C(N/N=C/c1ccc2c(ccc[n+]2Cc2ccccc2)c1)c1ccc2ccc(C(=O)N/N=C/c3ccc4c(ccc[n+]4Cc4ccccc4)c3)nc2n1  ΔTm (myc22 MYC G4-DNA parallel; FRET melting; 1 µM, K1 buffer, DNA 0.2 µM, added: ds26 10 µM): 14.3 ± 0.7 °C
CN1CCCNC(=O)c2cccc(c2)C(=O)NCCCN(C)CCCNc2cccc3c2C(=O)c2cccc(c2C3=O)NCCC1  log2 fold change (SAS; RNA-seq, item: MAST4-AS1 mRNA; 1 µM, 6 h; reference: untreated cells): 1.72
Cc1ncsc1-c1ccc(C(C)NC(=O)C2CC(O)CN2C(=O)C(NC(=O)CCCCCCCCCCN2CCCC(Nc3ncc(Cl)c(Nc4ccccc4S(=O)(=O)C(C)C)n3)C2)C(C)(C)C)cc1 (centres unmarked)  log2 fold change (22Rv1; RNA-seq, item: POLH mRNA; concentration not given; reference: DMSO): -1.1

Some of these lines once more:
C[n+]1ccc(/C=N/NC(=O)c2ccc3ccc(C(=O)N/N=C/c4cc[n+](C)c5ccccc45)nc3n2)c2ccccc21  ΔTm (myc22 MYC G4-DNA parallel; FRET melting; 1 µM, K1 buffer, DNA 0.2 µM, added: ds26 10 µM): 23 ± 0.6 °C
C=C(NC(=O)c1csc(-c2nc3c(cc2O)-c2nc(cs2)C(=O)NC(C(C)O)C(=O)NC(=C(C)OC)c2nc(cs2)C(=O)NC2c4nc(cs4)C(=O)NC(COC(=O)c4c5c6c(cccc6n4O)COC(=O)C(OC4CC(C)(O)C(N(C)C)C(C)O4)C2OC5)c2nc-3cs2)n1)C(N)=O (centres unmarked)  MIC90 (Staphylococcus epidermidis; microbial growth; MRSE; clinical isolate): 0.0156 µg/mL (≈ 0.0109 µM)
